Assay results of several laboratories.
Each line is one published result; not all experiments were run side by side. ± gives the spread as reported.

CCCCn1cc(C(=O)O)c(=O)c2cc(F)c(Nc3ccccc3OC)c([N+](=O)[O-])c21
IC50 (T47D; cell growth or viability, SRB): 310 µM

NCCNc1nnnc2c1sc1nc(N3CCOCC3)c3c(c12)CCCC3
share of drug-related material (human hepatocytes, cryopreserved; UHPLC-MS; 1 µM, 120 min): 10%

COC(=O)NC(C(=O)NN(Cc1ccc(Br)cc1)CC(O)(Cc1ccccc1)C(=O)NCc1ccccc1)C(C)(C)C (stereo not drawn)
Papp A-to-B (2/4/A1 rat cell monolayer; pH 7.4, 1% BSA in receiver): 245 ± 15 ×10⁻⁶ cm/s

CC(C)=CCc1c2c(c(O)c3c(=O)c(-c4ccc(O)cc4)coc13)CC(C(C)(C)O)O2 (stereo not drawn)
viability (K562; cell growth or viability, MTT; 25 µg/mL): 13.3%

COc1ccc([C@@H]2CC(=O)c3c(O)cc(O[C@@H]4O[C@H](CO[C@@H]5O[C@@H](C)[C@H](O)[C@@H](O)[C@H]5O)[C@@H](O[C@H]5O[C@H](CO)[C@@H](O)[C@H](O)[C@H]5O)[C@H](O)[C@H]4O)cc3O2)cc1O
viability (MRC5; cell growth or viability, MTS; 150 µg/mL, 24 h): 35.5%

CC(=O)N[C@H](C(=O)N[C@H](C(=O)N[C@@H](CCCNC(=N)N)C(=O)N1Cc2ccccc2C[C@H]1C(=O)N[C@@H](Cc1ccccc1)C(N)=O)C1CCCCC1)C(C)C
cytokine level (human PBMC; Bio-Plex multiplex, refers to: IL-10; 500 µg/mL, 24 h): 2 ± 1.7 pg/mL

NCC1OC(OC2C(N)CC(N)C(OC3OC(CO)C(O)C(N)C3O)C2OCCCCCCCCCCCCn2cc(CNc3nc(NCc4cn(CCCCCCCCCCCCOC5C(OC6OC(CN)C(O)CC6N)C(N)CC(N)C5OC5OC(CO)C(O)C(N)C5O)nn4)nc(NCc4cn(CCCCCCCCCCCCOC5C(OC6OC(CN)C(O)CC6N)C(N)CC(N)C5OC5OC(CO)C(O)C(N)C5O)nn4)n3)nn2)C(N)CC1O (stereo not drawn)
viability (Hep G2; PrestoBlue; 2 µM, 48 h; reference: untreated): 70%

COc1cc2c(cc1O)[C@]1(O)C(=O)c3c(O)cc4c(c3O[C@@H]1CO2)C=CC(C)(C)O4
viability (K562; cell growth or viability, MTT; 50 µg/mL): 7.19%

CCN(c1nc(N)c(C(=O)NC(=N)N)nc1Cl)C(C)C
cytotoxicity (Calu-3; ATP content; concentration not given, 48 (unit not given)): 37.1%

O=[N+]([O-])c1ccc(/C=N/N=C/c2ccc(Br)cc2)o1
CC50 (MDBK; CCK-8; 72 h): > 310 µM

COC(=O)[C@H](CSSC[C@H](NC(=O)[C@H](Cc1ccccc1)NC(=O)[C@H](Cc1ccccc1)NC(=O)OC(C)(C)C)C(=O)OC)NC(=O)[C@H](Cc1ccccc1)NC(=O)[C@H](Cc1ccccc1)NC(=O)OC(C)(C)C
cytotoxic concentration (AC-16; MTT; 36 h): 100 µM

C[C@]12CC/C(=N\OCCN3CCOCC3)C=C1CCC1C2CC[C@]2(C)/C(=C/c3ccccn3)CCC12 (stereo partly drawn)
cytotoxicity (BJ fibroblasts; alamarBlue; concentration not given, 72 h): not toxic

NC[C@H]1O[C@H](O[C@H]2[C@H](OCCCCCCCCCCCCn3cc(CNc4nc(NCc5cn(CCCCCCCCCCCCO[C@@H]6[C@@H](O)[C@H](N)C[C@H](N)[C@H]6O[C@H]6O[C@H](CN)[C@@H](O)C[C@H]6N)nn5)nc(NCc5cn(CCCCCCCCCCCCO[C@@H]6[C@@H](O)[C@H](N)C[C@H](N)[C@H]6O[C@H]6O[C@H](CN)[C@@H](O)C[C@H]6N)nn5)n4)nn3)[C@@H](O)[C@H](N)C[C@@H]2N)[C@H](N)C[C@@H]1O
viability (Hep G2; PrestoBlue; 2 µM, 48 h; reference: untreated): 100%

CCCCn1cc(C(=O)O)c(=O)c2cc(F)c3[nH]nnc3c21
IC50 (PANC-1; cell growth or viability, SRB): 135 µM

COC(=O)NC(C(=O)NN(Cc1ccc(-c2cc3ccccc3s2)cc1)CC(O)(Cc1ccccc1)C(=O)NC1c2ccccc2CC1O)C(C)(C)C (stereo not drawn)
Papp A-to-B (2/4/A1 rat cell monolayer; pH 7.4, 1% BSA in receiver): 4.1 ± 1.3 ×10⁻⁶ cm/s

N=C(N)NCCC[C@H](NC(=O)[C@H](CCCNC(=N)N)NC(=O)[C@H](CCCNC(=N)N)NC(=O)[C@H](CCCNC(=N)N)NC(=O)[C@H](CCCNC(=N)N)NC(=O)[C@H](CCCNC(=N)N)NC(=O)[C@H](CCCNC(=N)N)NC(=O)[C@H](CCCNC(=N)N)NC(=O)[C@H](Cc1c[nH]cn1)NC(=O)[C@H](Cc1c[nH]cn1)NC(=O)[C@H](Cc1c[nH]cn1)NC(=O)[C@H](Cc1c[nH]cn1)NC(=O)[C@H](Cc1ccccc1)NC(=O)[C@H](Cc1ccccc1)NC(=O)[C@H](Cc1ccccc1)NC(=O)[C@H](Cc1ccccc1)NC(=O)[C@@H](N)Cc1ccccc1)C(N)=O
viability (MCEC; MTT; 32 µM, 4 h, peptide complex, N/P 20, read 3 days later): ~90%

CC/C=C\C/C=C\C/C=C\C/C=C\C/C=C\C/C=C\CCC(=O)OC(CO)COP(=O)(O)OCCN (stereo not drawn)
intracellular accumulation (human brain-like endothelial cells; LC-MS; in vitro BBB model; 1 µM, 180 min, pH 7.4): 2.79 ± 0.55%

C[C@@H]1NC(=O)[C@@H]2CSSC[C@H](NC(=O)[C@H](CC(=O)O)NC(=O)[C@H](CC(=O)O)NC(=O)CNC(=O)[C@H](CC(=O)O)NC(=O)[C@H](Cc3ccc(O)cc3)NC1=O)C(=O)N[C@@H](CCCCN)C(=O)N[C@@H](CO)C(=O)N[C@@H](C)C(=O)NCCc1cccc3c1Oc1c(cccc1-3)CCC(=O)N[C@@H](CO)C(=O)N2
cytotoxicity (HFLS-RA; concentration not given): not toxic

COC(=O)NC(C(=O)NN(Cc1ccc(C=Cc2ccccc2)cc1)CC(O)(Cc1ccccc1)C(=O)NC1c2ccccc2CC1O)C(C)(C)C (stereo not drawn)
Papp A-to-B (2/4/A1 rat cell monolayer; pH 7.4, 1% BSA in receiver): 32 ± 2.5 ×10⁻⁶ cm/s

CCCCn1cc(C(=O)O)c(=O)c2cc(F)c3c(nnn3-c3ccccc3OC)c21
IC50 (T47D; cell growth, SRB; 72 h): 9.16 ± 0.58 µg/mL

CCCCn1cc(C(=O)O)c(=O)c2cc(F)c(N)c([N+](=O)[O-])c21
IC50 (PANC-1; cell growth or viability, SRB): 359 µM

CCCCn1cc(C(=O)O)c(=O)c2cc(F)c(Nc3cccc(OC)c3)c([N+](=O)[O-])c21
IC50 (T47D; cell growth or viability, SRB): 302 µM

CNC(=O)C(Cc1ccccc1)NC(=O)C(O)(Cc1ccccc1)CN(Cc1ccc(Br)cc1)NC(=O)C(NC(=O)OC)C(C)(C)C (stereo not drawn)
Papp A-to-B (2/4/A1 rat cell monolayer; pH 7.4, 1% BSA in receiver): 218 ± 5.8 ×10⁻⁶ cm/s

COc1ccc(-c2coc3c(CC=C(C)C)c(O)c(CC=C(C)C)c(O)c3c2=O)cc1O
viability (K562; cell growth or viability, MTT; 100 µg/mL): 11.6%

[99Tc+].[C-]#[N+]CC(C)(C)OC.[C-]#[N+]CC(C)(C)OC.[C-]#[N+]CC(C)(C)OC.[C-]#[N+]CC(C)(C)OC.[C-]#[N+]CC(C)(C)OC.[C-]#[N+]CC(C)(C)OC
in vitro biliary clearance (rat sandwich-cultured hepatocytes, Bcrp siRNA; 10 min, culture day 4): 9.73 mL/min/kg

Cc1ncsc1-c1ccc([C@H](C)NC(=O)[C@@H]2C[C@@H](O)CN2C(=O)[C@@H](NC(=O)CN2CCN(CC3CCN(CC(=O)N4CCN(c5ncc(-c6cc(NC(=O)c7ccc(F)cc7C(F)(F)F)c(N7C[C@@H](C)N(C)[C@@H](C)C7)cc6F)cn5)CC4)CC3)CC2)C(C)(C)C)cc1
intracellular fraction (Sf9; LC-MS; 10 µM, 24 h; reference: total recovery cells plus medium): 32%

COC(=O)c1cc(CN2CCN(C(=N)N)CC2)cc(C(=O)N2CCN(C(=O)c3ccc(C(=N)N)cc3)CC2)c1
cytotoxicity (Calu-3; ATP content; concentration not given, 48 (unit not given)): 0%

CC(C)=CCc1cc(-c2coc3cc(O)c(CC=C(C)C)c(O)c3c2=O)ccc1O
viability (K562; cell growth or viability, MTT; 25 µg/mL): 35.6%

N=C(N)c1ccc(C(=O)N[C@@H](Cc2ccc(O)cc2)C(=O)N2CCC(OCC(=O)O)CC2)cc1
cytotoxicity (Calu-3; ATP content; concentration not given, 48 (unit not given)): 0%

CC/C=C\C/C=C\C/C=C\C/C=C\C/C=C\C/C=C\CCC(=O)OC(CO)COP(=O)([O-])OCC[N+](C)(C)C (stereo not drawn)
intracellular accumulation (human brain-like endothelial cells; LC-MS; in vitro BBB model; 1 µM, 180 min, pH 7.4): 0.28 ± 0.02%

For quick reference, copied from above:
CNC(=O)C(Cc1ccccc1)NC(=O)C(O)(Cc1ccccc1)CN(Cc1ccc(Br)cc1)NC(=O)C(NC(=O)OC)C(C)(C)C (stereo not drawn)
Papp A-to-B (2/4/A1 rat cell monolayer; pH 7.4, 1% BSA in receiver): 218 ± 5.8 ×10⁻⁶ cm/s

COc1ccc(-c2coc3c(CC=C(C)C)c(O)c(CC=C(C)C)c(O)c3c2=O)cc1O
viability (K562; cell growth or viability, MTT; 100 µg/mL): 11.6%

[99Tc+].[C-]#[N+]CC(C)(C)OC.[C-]#[N+]CC(C)(C)OC.[C-]#[N+]CC(C)(C)OC.[C-]#[N+]CC(C)(C)OC.[C-]#[N+]CC(C)(C)OC.[C-]#[N+]CC(C)(C)OC
in vitro biliary clearance (rat sandwich-cultured hepatocytes, Bcrp siRNA; 10 min, culture day 4): 9.73 mL/min/kg

Cc1ncsc1-c1ccc([C@H](C)NC(=O)[C@@H]2C[C@@H](O)CN2C(=O)[C@@H](NC(=O)CN2CCN(CC3CCN(CC(=O)N4CCN(c5ncc(-c6cc(NC(=O)c7ccc(F)cc7C(F)(F)F)c(N7C[C@@H](C)N(C)[C@@H](C)C7)cc6F)cn5)CC4)CC3)CC2)C(C)(C)C)cc1
intracellular fraction (Sf9; LC-MS; 10 µM, 24 h; reference: total recovery cells plus medium): 32%
